{"data": "Published values of several laboratories", "note": "Numbered parts are unrelated; each lists some results of a single study."}
{"data": "Series 1", "target": "RING finger protein unkempt homolog, zinc fingers 1-6, GST-SBP tag (UNK, Homo sapiens, UniProt Q9C0B0, residues 30-357)", "technique": "RNA Bind-n-Seq", "molecule type": "RNA", "medium": "in vitro", "concentration": "not given", "notes": "RNA with constant flanks, ends assumed", "reference": "input RNA pool", "direction": "higher = stronger binding", "chain of UniProt Q9C0B0 (30-357, looked up)": "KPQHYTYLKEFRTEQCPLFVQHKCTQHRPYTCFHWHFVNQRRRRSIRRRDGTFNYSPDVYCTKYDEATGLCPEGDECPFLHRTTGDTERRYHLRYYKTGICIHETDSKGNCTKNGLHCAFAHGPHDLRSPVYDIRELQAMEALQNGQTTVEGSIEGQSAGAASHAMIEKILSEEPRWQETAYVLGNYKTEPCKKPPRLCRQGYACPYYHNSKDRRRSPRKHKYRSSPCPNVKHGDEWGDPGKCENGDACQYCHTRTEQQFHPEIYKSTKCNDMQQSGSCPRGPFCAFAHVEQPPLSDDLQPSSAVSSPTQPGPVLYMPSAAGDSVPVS"}
{"Oligonucleotide": "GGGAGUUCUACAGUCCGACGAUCUUUAAGACUUUAUAUUGCUUUUCAAACAAAGAAAGCCCUAACCAAAACAAUACUACCCACUCCGAUAUUGCUGCAGUUCAAGGUUUUUCAGUCAUCUUGGACUUCUUGUAUUCUGGUAACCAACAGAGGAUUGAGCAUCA", "bound/input enrichment [ratio]": 0.226}
{"Oligonucleotide": "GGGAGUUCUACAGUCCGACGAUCUUCCAUUUAGCUUACAUGUAAAUGUAAUUAUUUAAAACACACACACUGCUCUGCGUUGUACCGUUUUUCCUUUUUUGUAUGUAACAGAACACAUUUCAGAUUGUAUUUAAUUUAAAUAUUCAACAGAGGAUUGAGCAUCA", "bound/input enrichment [ratio]": 8.18}
{"Oligonucleotide": "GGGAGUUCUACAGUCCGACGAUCUUCAAAAUCGGAGCAUGUCGUCAUGGAGACAGAUGUUCUCGGUUGCACAAUAAACCAACCUUCCGCCAGACCAUUGCCCUCUUGAACAUUUACCGUAACCCUCAAAACUCUUCCCAGUCUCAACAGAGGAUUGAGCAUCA", "bound/input enrichment [ratio]": 0.133}
{"Oligonucleotide": "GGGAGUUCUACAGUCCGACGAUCAGGAGAAAAAUCAUCUUAUCAGACGAAGGCAAAAUGUAUGGUAGAAAUGAAUUGACCGCCAGAUACAUCAAACUCAGGACGGGAAAGACAAGGACCAGGAAGCAGGUGUCUAGUCACAUUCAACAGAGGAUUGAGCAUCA", "bound/input enrichment [ratio]": 0.244}
{"Oligonucleotide": "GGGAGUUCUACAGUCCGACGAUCAGCAGACCAAAAAUUCUGAUGACCGCAUCUAGAUUAUUUUUUUAUAAAAAUGAUUUUCACUACCGCUAUGUUACGCUAAGCUACUGUCCAAUCUCUUGUGAUGUGUAACUUUUACAUGUGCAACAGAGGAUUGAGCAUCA", "bound/input enrichment [ratio]": 2.27}
{"Oligonucleotide": "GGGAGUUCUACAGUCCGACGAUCGUUUUAAAGAAGGCACUUGAAAUUACAAAAGCAAGUCAUGUGACCCCUCAGCCAGAAGACCGUUGGAUCCCUUUACUUAUUAAUGCCAUUGAUCAUUGCAUGAAUAGAAUCAAGGAGCUCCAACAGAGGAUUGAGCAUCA", "bound/input enrichment [ratio]": 0.19}
{"Oligonucleotide": "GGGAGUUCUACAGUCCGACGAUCUGUGCAUUGGGUUAAAAACGACAACCAACAUCAGCCAUGAAAGAUCCAAGUCGCAGCAGUACCCGCCCAAGCAUCAUCAAUGAAGAUGUGAUUAUUAACGGUCAUUCUCAUGAAGAUGACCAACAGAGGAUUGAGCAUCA", "bound/input enrichment [ratio]": 0.122}
{"Oligonucleotide": "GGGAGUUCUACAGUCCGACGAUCCUUGUCUACCAUAUUGGCCUCACCCCAGCCAAACUUCCUGACCUUGUGGAAAACAACCCUUCCGUCGCUAUAGAAAUGUUGCUGAAAUUAAUGCAGUCAAGCCAGAUCACUGAGUAUUUCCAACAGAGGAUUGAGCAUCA", "bound/input enrichment [ratio]": 0.688}
{"data": "Series 2", "target": "Histone acetyltransferase KAT6A, winged helix 1, GST fusion (KAT6A, Homo sapiens, UniProt Q92794, residues 1-85)", "technique": "protein binding microarray", "molecule type": "double-stranded DNA, one strand shown", "medium": "in vitro", "concentration": "not given", "notes": "8-mer, flanks averaged, mean of 2 arrays, mostly near background", "reference": "not given", "direction": "higher = stronger binding", "Construct (chain)": "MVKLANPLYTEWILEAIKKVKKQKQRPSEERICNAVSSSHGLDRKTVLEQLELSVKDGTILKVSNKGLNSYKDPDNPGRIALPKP"}
{"Oligonucleotide": "AGAAGACA", "E-score": -0.306}
{"Oligonucleotide": "AAGATGTA", "E-score": -0.178}
{"Oligonucleotide": "GAGCATTA", "E-score": -0.0456}
{"Oligonucleotide": "CGGCAGTA", "E-score": 0.338}
{"Oligonucleotide": "TGTGAAAA", "E-score": -0.0903}
{"Oligonucleotide": "AAGACTAA", "E-score": -0.156}
{"Oligonucleotide": "CCGTCCTC", "E-score": 0.177}
{"Oligonucleotide": "GCGGTAAA", "E-score": 0.337}
{"data": "Series 3", "target": "Ras GTPase-activating protein-binding protein 1, full length (G3BP1, Homo sapiens, UniProt Q13283)", "technique": "RNA Bind-n-Seq", "molecule type": "RNA", "medium": "in vitro", "concentration": "200 nM", "notes": "whole 134-nt RNA, ends assumed", "together with": "150 mM LiCl", "reference": "input library", "direction": "higher = stronger binding", "each molecule": "7-deaza-guanosine replaces G", "chain of UniProt Q13283 (whole entry, looked up)": "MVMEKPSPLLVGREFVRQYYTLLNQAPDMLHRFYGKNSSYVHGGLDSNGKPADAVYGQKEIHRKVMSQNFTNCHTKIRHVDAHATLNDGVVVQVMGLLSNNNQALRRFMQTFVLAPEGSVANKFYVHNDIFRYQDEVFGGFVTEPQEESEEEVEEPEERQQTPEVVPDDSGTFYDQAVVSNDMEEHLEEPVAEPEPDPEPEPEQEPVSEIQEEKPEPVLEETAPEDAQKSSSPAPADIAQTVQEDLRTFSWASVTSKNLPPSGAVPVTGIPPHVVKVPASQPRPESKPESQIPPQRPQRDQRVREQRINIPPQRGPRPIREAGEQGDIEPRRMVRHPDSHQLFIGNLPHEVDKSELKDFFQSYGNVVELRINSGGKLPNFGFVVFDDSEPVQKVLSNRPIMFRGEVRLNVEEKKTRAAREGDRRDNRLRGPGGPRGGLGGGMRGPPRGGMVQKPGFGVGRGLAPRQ"}
{"Oligonucleotide": "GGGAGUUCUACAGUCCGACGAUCCAAGUCCUGUGCUACACAUCGUAUGUACCGAAUCGGGGCCCGGGCCCGGCCCGGGGAAAGUAUUAUGUUACGCCGUUCGGAUCUGCACUUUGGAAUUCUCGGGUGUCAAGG", "log2 enrichment": -0.655}
{"Oligonucleotide": "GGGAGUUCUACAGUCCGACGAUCGAGAGCGAGGUGGCUUCAAUAAGCCUGGUGGUAAGUUUUUGAGUAUUACCAUAGAUAGUGUUUAAAAAAAAAUGCAGUCAGUUUUUAGAAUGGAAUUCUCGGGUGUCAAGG", "log2 enrichment": -0.0442}
{"Oligonucleotide": "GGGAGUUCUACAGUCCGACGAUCUGGCCCUGGUGGCAUGCGGGGAGGAAGAGGUGGCCUCAUGGAUCGUGGUUGUCCCGGUGGAAUGUUCAGAGGUGGCCGUGGUGGAGACAGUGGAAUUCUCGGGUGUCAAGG", "log2 enrichment": 0.361}
{"Oligonucleotide": "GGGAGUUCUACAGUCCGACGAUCGUCCUGUGCUACACAUCGUAUGUACCGAAUCGGAAAAAAGGAAAAAAGGGAAAAAAGGAAAGUAUUAUGUUACGCCGUUCGGAUCUGCACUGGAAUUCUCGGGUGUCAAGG", "log2 enrichment": -0.781}
{"Oligonucleotide": "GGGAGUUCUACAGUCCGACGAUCCCUGUGCUACACAUCGUAUGUACCGAAUCGGGGAAAAAAAGGGGUGGGGUUUUUUUGGGGAAAGUAUUAUGUUACGCCGUUCGGAUCUGCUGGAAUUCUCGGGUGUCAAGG", "log2 enrichment": -0.199}
{"Oligonucleotide": "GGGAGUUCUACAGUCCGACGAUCUCCUGUGCUACACAUCGUAUGUACCGAAUCGGGGAAAAAAGGGAAAAAAGGGAAAAAAGGAAAGUAUUAUGUUACGCCGUUCGGAUCUGCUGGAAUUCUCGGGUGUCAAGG", "log2 enrichment": 0.205}
{"Oligonucleotide": "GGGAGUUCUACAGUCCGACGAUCAAGUCCUGUGCUACACAUCGUAUGUACCGAAUCGGGAAAAAAAGGGUGGGAAAGGGAAAGUAUUAUGUUACGCCGUUCGGAUCUGCACUUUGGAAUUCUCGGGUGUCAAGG", "log2 enrichment": -0.407}
{"Oligonucleotide": "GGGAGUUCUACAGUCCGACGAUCCAAGUCCUGUGCUACACAUCGUAUGUACCGAAUCGGUUUUUUUGGUUUUUGGUGGAAAGUAUUAUGUUACGCCGUUCGGAUCUGCACUUCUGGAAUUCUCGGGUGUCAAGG", "log2 enrichment": -1}
{"data": "Single results of other studies"}
{"Sequence": "EAYCALLCK", "target": "HLA class I histocompatibility antigen, A alpha chain, allele A*25:01 (Homo sapiens, UniProt P04439)", "read-out": "peptide-MHC binding", "molecule type": "peptide", "concentration": "concentration not given", "measurement": "binding", "value": "inactive"}
{"note": "A few entries again (series 1):"}
{"Oligonucleotide": "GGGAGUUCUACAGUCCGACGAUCAGGAGAAAAAUCAUCUUAUCAGACGAAGGCAAAAUGUAUGGUAGAAAUGAAUUGACCGCCAGAUACAUCAAACUCAGGACGGGAAAGACAAGGACCAGGAAGCAGGUGUCUAGUCACAUUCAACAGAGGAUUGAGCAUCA", "bound/input enrichment [ratio]": 0.244}
{"Oligonucleotide": "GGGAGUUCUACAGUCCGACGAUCUUUAAGACUUUAUAUUGCUUUUCAAACAAAGAAAGCCCUAACCAAAACAAUACUACCCACUCCGAUAUUGCUGCAGUUCAAGGUUUUUCAGUCAUCUUGGACUUCUUGUAUUCUGGUAACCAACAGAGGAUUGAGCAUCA", "bound/input enrichment [ratio]": 0.226}
{"Oligonucleotide": "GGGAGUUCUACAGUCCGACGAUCGUUUUAAAGAAGGCACUUGAAAUUACAAAAGCAAGUCAUGUGACCCCUCAGCCAGAAGACCGUUGGAUCCCUUUACUUAUUAAUGCCAUUGAUCAUUGCAUGAAUAGAAUCAAGGAGCUCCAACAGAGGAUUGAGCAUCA", "bound/input enrichment [ratio]": 0.19}
{"Oligonucleotide": "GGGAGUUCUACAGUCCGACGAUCUUCCAUUUAGCUUACAUGUAAAUGUAAUUAUUUAAAACACACACACUGCUCUGCGUUGUACCGUUUUUCCUUUUUUGUAUGUAACAGAACACAUUUCAGAUUGUAUUUAAUUUAAAUAUUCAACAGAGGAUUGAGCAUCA", "bound/input enrichment [ratio]": 8.18}
